Measured values of several laboratories.
Lines come from different studies, so protocols differ. ± gives the spread as reported.

With COc1ccc(CNc2nc(N3CCC[C@H]3CO)ncc2C(=O)NNC(=O)c2cnc(N3CCC[C@H]3CO)nc2NCc2ccc(OC)c(Cl)c2)cc1Cl the revertant count was 208 ± 11 (Salmonella typhimurium; TA102; 500 µg/plate, together with: rat liver S9).
With O=C(O)c1cc[c]([Hg][Cl])cc1 the EC50 was 2 µM (Trypanosoma brucei; viability, flow cytometry; bloodstream form; 24 h).
CC(C)=CCC/C(C)=C/CNCCOC1C2CC3CC(C2)CC1C3 (centres unmarked) gave a selectivity index of 3.8 (Trypanosoma brucei; baseline: CC50 HepG2 over IC50 T. brucei).
CC(=Nc1ccccc1)c1c(C)cc(=O)n(O)c1O gave a selectivity index of 46.2 (hepatitis B virus; viral replication, qPCR; HepDES19 genotype D; baseline: CC50 over EC50).
CC(C)=CCNCCOC1C2CC3CC(C2)CC1C3 (centres unmarked) gave a selectivity index of 3.1 (Trypanosoma brucei; baseline: CC50 HepG2 over IC50 T. brucei).
CCS(=O)(=O)N1CC(CC#N)(n2cc(-c3ncnc4[nH]ccc34)cn2)C1 has a CC50 of > 20 µM (SARS-CoV-2 USA-WA1/2020; alamarBlue; Vero E6, infected; 24 h post infection).
COc1ccc(CNc2nc(N3CCC[C@H]3CO)ncc2C(=O)NN)cc1Cl has a revertant count of 241 ± 25 (Salmonella typhimurium; TA102; 500 µg/plate, together with: rat liver S9).
The revertants of CCC(=O)N(C)c1ccc(Cl)c(Cl)c1 is reported as 19 ± 6.4 revertants/plate (Salmonella typhimurium; Ames test; TA98; 0.10 mg/plate, without S9 activation).
COc1cc(O)c2c(c1)/C=C/C[C@H](O)[C@H](O)C(=O)/C=C\C[C@H](C)OC2=O gave a CC50 of 18 µM (SARS-CoV-2 USA-WA1/2020; alamarBlue; Vero E6, infected; 24 h post infection).
For Cc1cc(/C=C/C#N)cc(C)c1Nc1nc(Nc2ccc(C#N)cc2)ncc1N, the therapeutic index was > 25000 (HIV-1 wild type; baseline: CC50 over EC50).
CC(C)=CCC/C(C)=C/CC/C(C)=C/CNCCOC1C2CC3CC(C2)CC1C3 (centres unmarked) has a selectivity index of 13 (Trypanosoma brucei; baseline: CC50 HepG2 over IC50 T. brucei).

Some of these lines once more:
COc1ccc(CNc2nc(N3CCC[C@H]3CO)ncc2C(=O)NN)cc1Cl has a revertant count of 241 ± 25 (Salmonella typhimurium; TA102; 500 µg/plate, together with: rat liver S9).
